Results from different studies.
Parts stem from different laboratories: compare values within a part only.
Sequence of UniProt Q13557 (whole entry, looked up): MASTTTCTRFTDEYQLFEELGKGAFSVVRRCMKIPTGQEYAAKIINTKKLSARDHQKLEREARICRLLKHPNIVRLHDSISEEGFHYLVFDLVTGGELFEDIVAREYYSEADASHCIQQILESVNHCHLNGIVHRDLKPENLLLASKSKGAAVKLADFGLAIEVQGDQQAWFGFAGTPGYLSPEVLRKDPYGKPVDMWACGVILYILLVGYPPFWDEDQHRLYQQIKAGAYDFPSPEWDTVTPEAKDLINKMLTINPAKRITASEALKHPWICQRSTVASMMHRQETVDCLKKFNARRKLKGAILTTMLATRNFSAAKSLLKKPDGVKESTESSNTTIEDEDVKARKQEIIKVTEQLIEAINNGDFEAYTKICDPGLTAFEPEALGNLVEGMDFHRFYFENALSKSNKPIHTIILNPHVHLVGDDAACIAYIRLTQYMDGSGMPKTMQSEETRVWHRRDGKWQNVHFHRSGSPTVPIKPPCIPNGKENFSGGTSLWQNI
Sequence of UniProt P52564 (whole entry, looked up): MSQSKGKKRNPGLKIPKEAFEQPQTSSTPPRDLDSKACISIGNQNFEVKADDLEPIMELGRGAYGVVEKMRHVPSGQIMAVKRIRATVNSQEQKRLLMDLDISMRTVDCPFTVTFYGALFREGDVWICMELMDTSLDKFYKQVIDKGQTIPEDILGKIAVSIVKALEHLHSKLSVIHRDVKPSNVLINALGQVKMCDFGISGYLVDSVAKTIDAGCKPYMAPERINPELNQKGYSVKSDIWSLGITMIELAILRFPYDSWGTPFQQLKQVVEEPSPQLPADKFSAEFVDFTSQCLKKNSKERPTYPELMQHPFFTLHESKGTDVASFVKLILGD
Sequence of UniProt P0C1S8 (whole entry, looked up): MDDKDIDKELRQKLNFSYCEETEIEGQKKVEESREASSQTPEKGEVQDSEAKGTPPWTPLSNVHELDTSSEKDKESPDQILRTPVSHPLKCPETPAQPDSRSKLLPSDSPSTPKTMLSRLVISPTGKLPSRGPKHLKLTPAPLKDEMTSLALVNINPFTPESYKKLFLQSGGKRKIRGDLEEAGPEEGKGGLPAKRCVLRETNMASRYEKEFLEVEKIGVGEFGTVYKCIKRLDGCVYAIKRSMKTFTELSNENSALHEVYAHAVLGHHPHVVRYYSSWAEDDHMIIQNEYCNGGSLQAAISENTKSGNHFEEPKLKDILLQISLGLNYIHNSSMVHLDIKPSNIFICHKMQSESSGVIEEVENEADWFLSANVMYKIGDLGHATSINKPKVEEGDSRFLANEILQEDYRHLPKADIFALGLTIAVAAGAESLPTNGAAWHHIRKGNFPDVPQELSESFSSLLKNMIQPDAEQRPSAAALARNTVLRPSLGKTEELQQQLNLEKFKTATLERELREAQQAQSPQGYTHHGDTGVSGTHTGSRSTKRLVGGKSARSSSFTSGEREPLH
Sequence of UniProt Q16832 (whole entry, looked up): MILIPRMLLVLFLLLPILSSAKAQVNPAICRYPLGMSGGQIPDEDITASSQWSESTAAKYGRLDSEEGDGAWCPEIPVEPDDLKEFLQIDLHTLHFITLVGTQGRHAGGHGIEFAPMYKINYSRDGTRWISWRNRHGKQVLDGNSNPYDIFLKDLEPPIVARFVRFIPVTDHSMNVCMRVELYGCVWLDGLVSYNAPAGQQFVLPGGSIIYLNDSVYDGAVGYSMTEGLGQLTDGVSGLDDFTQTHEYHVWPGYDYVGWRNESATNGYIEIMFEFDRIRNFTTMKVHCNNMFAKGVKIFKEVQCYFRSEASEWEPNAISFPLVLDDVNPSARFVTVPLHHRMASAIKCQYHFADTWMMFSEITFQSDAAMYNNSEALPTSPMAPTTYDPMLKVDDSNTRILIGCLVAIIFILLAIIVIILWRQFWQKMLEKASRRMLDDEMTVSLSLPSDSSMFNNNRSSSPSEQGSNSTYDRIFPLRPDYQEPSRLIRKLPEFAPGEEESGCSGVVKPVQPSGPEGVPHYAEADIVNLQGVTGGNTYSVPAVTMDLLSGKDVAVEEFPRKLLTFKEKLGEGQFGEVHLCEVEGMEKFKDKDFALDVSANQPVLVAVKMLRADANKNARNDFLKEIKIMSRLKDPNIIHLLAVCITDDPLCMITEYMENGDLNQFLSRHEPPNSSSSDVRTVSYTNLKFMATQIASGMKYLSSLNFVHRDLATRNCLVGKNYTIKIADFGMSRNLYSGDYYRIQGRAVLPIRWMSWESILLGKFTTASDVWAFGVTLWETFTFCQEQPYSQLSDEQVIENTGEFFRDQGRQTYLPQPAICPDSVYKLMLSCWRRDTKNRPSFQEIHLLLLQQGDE
Sequence of UniProt O94921 (whole entry, looked up): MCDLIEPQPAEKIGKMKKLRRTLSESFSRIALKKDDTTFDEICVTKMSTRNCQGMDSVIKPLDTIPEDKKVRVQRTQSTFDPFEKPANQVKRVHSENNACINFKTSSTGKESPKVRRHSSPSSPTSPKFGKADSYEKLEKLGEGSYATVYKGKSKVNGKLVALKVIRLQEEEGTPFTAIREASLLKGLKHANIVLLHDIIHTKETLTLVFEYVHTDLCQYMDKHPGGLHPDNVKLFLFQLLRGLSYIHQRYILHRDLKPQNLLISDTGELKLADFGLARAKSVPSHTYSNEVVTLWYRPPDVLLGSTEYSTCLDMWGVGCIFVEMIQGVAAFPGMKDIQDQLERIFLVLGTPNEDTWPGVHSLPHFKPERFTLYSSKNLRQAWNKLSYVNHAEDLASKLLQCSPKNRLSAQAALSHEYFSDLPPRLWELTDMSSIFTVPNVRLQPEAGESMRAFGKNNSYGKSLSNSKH
Sequence of UniProt Q96J92 (whole entry, looked up): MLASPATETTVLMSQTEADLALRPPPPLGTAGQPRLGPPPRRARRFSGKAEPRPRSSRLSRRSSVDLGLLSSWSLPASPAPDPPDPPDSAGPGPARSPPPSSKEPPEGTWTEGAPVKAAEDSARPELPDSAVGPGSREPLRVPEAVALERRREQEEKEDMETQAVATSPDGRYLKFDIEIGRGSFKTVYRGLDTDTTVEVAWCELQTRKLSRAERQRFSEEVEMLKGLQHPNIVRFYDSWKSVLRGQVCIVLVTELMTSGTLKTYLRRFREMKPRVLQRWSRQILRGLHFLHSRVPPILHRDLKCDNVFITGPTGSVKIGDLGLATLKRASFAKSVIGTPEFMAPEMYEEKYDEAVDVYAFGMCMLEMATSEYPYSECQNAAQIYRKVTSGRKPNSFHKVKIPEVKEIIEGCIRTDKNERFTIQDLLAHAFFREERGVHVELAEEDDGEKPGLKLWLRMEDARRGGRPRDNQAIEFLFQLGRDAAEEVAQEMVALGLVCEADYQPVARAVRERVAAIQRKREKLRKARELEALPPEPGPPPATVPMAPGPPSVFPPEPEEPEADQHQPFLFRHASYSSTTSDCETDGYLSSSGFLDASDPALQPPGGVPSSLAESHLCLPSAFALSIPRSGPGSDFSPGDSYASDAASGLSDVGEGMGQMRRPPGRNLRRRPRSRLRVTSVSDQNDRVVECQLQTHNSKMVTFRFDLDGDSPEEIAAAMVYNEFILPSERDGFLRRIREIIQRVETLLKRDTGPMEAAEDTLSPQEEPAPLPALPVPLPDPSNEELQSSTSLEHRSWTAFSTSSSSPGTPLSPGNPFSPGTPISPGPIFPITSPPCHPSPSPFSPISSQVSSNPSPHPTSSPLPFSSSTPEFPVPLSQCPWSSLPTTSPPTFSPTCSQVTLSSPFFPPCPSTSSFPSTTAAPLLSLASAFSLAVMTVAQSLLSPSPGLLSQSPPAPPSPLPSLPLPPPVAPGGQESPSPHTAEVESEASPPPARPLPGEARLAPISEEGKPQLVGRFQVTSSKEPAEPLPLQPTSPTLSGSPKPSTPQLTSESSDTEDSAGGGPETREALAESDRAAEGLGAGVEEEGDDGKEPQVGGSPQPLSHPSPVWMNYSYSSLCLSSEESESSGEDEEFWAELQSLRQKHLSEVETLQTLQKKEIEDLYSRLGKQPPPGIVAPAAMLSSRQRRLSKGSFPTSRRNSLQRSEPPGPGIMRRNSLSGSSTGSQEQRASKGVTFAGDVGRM
Sequence of UniProt Q9HBY8 (whole entry, looked up): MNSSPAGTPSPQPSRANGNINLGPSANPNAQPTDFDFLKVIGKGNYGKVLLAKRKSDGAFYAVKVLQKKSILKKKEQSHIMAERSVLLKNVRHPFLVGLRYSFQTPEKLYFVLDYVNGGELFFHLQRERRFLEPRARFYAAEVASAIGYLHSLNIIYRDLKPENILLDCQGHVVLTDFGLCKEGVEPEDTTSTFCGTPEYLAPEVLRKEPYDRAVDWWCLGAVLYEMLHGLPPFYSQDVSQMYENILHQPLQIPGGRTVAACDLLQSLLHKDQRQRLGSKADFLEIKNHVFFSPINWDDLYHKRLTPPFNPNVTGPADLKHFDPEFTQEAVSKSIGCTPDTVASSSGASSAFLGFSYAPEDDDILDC

Block 1 — observed: enzyme activity; action: inhibitor; tested at: 10 µM
Target: Calcium/calmodulin-dependent protein kinase type II subunit alpha (CAMK2A, Homo sapiens, UniProt Q9UQM7)
Sequence of UniProt Q9UQM7 (whole entry, looked up): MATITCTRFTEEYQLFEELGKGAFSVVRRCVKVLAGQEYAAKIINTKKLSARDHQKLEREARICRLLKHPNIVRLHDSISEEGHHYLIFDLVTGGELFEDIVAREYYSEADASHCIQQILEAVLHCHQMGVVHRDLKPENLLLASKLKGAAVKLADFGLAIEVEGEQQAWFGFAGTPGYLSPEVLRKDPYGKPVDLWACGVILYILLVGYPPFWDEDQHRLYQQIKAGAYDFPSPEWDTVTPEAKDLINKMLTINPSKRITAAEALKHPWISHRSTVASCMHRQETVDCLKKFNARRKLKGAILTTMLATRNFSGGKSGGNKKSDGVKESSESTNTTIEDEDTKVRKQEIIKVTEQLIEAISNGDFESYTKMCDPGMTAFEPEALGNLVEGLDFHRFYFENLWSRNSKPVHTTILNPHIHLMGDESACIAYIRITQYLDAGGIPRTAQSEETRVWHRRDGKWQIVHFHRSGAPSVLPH
Structure (SMILES) | inhibition [%]
CC1(C)OC[C@@H](COC(=O)CCc2ccc(OC[C@@H](O)CNCCNC(=O)N3CCOCC3)cc2)O1 | -14
CN[C@@H]1CCc2[nH]c3ccc(C(N)=O)cc3c2C1 | -3
OCC1=C[C@@H](O)[C@]2(O[C@@H]3O[C@H](CO)[C@@H](O)[C@H](O)[C@H]3O[C@@H]3O[C@H](CO)[C@@H](O)[C@H](O)[C@H]3O)C=CO[C@@H](O[C@@H]3O[C@H](CO)[C@@H](O)[C@H](O)[C@H]3O)[C@H]12 | 18
CC(C)=CCc1cc(C(=O)/C=C/c2ccc(O)cc2)c(O)cc1O | 11
CC(C)=CCC[C@@](C)(O)[C@H]1CC[C@]2(C)[C@@H]1[C@H](O)C[C@@H]1[C@@]3(C)CC[C@H](O)C(C)(C)[C@@H]3[C@@H](O[C@@H]3O[C@H](CO)[C@@H](O)[C@H](O)[C@H]3O[C@@H]3O[C@@H](C)[C@H](O)[C@@H](O)[C@H]3O)C[C@]12C | 3
CCCC(C)C(=O)O (centres unmarked) | 3
CCCCCCCCCCCCCCCCCCCC(=O)OC | 6
COc1cc(/C=C/C(=O)O)cc(O)c1O | -3
Cc1nc2ccccc2o1 | -33

Block 2 — organism: Sarcocystis neurona; observed: parasite growth; tested at: 10 µM; time: 96 h; notes: second screen; relative to: untreated
Compound | log2 fold change
Nc1ccc(O)c(C(=O)O)c1 | 0.3
O=C1c2cccc3c2[C@H](CCC3)CN1[C@@H]1CN2CCC1CC2 | 0.29
NS(=O)(=O)Cc1noc2ccccc12 | 0.13
COc1cc(NC(C)CCCN)c2ncccc2c1 (centres unmarked) | -6.67
Cc1cccc(C)c1NC(=O)C1CCCCN1C (centres unmarked) | 0.14
CC(=O)Nc1ccc(CC(=O)O)cc1 | 0.29
CNS(=O)(=O)Cc1ccc2[nH]cc(CCN(C)C)c2c1 | 0.32
CCOC(=O)O[C@]1(C(=O)OCCl)CC[C@H]2[C@@H]3CCC4=CC(=O)C=C[C@]4(C)[C@H]3[C@@H](O)C[C@@]21C | 0.35
CCCc1nc(C(C)(C)O)c(C(=O)OCc2oc(=O)oc2C)n1Cc1ccc(-c2ccccc2-c2nnn[nH]2)cc1 | -0.0181
C[C@@H]1C[C@H]2[C@@H]3CCC4=CC(=O)C=C[C@]4(C)[C@@]3(F)[C@@H](O)C[C@]2(C)[C@@]1(O)C(=O)CO | 0.27

Block 3 — cell line: HaCaT; tested at: 100 µM; time: 18 h
SMILES | viability
CO/N=C1\C[C@]2(C[C@@H]3C[C@@H](C/C=C(\C)C[C@@H](C)/C=C/C=C4\CO[C@@H]5[C@H](O)C(C)=C[C@@H](C(=O)O3)[C@]45O)O2)O[C@H](/C(C)=C/C(C)C)[C@H]1C | 19.2%
CCCCC(=O)O[C@]1(C(=O)CO)[C@@H](C)C[C@H]2[C@@H]3CCC4=CC(=O)C=C[C@]4(C)[C@@]3(F)[C@@H](O)C[C@@]21C | 38.5%
O=c1ccc2cc3ccoc3cc2o1 | 98.3%
O=[N+]([O-])c1cncn1CCN1CCOCC1 | 88.8%
Cc1c(OCC(F)(F)F)ccnc1C[S+]([O-])c1nc2ccccc2[nH]1 (centres unmarked) | 75.1%
COc1ccc(OC)c(C(O)CNC(=O)CN)c1 (centres unmarked) | 99.1%
CO[C@H]1O[C@@H]2O[C@@]3(C)CC[C@H]4[C@H](C)CC[C@@H]([C@H]1C)[C@@]24OO3 | 86%
Cc1cc(C#N)cc(C)c1Oc1nc(Nc2ccc(C#N)cc2)nc(N)c1Br | 51.2%
Cc1ccc(Cl)c(Nc2ccccc2C(=O)O)c1Cl | 70%
Nc1nc(NC2CC2)c2ncn([C@H]3C=C[C@@H](CO)C3)c2n1 | 96.1%

Block 4 — method: competition with immobilised ligand; tested at: 1 µM
SMILES: COc1ccc2c(O[C@@H]3C[C@H]4C(=O)N[C@]5(C(=O)O)CC5/C=C\CCCCC[C@H](NC(=O)OC5CCCC5)C(=O)N4C3)cc(-c3csc(NC(=O)C(C)C)n3)nc2c1C (some centres unmarked)
target | test | remaining binding
CDK11A (Homo sapiens, UniProt Q9UQ88) | binding | 99%
WNK4 (Homo sapiens, UniProt Q96J92) | cell-free assay | 91%
FLT1 (Homo sapiens, UniProt P17948) | cell-free assay | 95%
EPHA1 (Homo sapiens, UniProt P21709) | cell-free assay | 88%
CAMK1 (Homo sapiens, UniProt Q14012) | cell-free assay | 100%
DDR2 (Homo sapiens, UniProt Q16832) | cell-free assay | 88%
SGK2 (Homo sapiens, UniProt Q9HBY8) | cell-free assay | 87%
CDK14 (Homo sapiens, UniProt O94921) | cell-free assay | 88%
Aurora kinase A (AURKA, Homo sapiens, UniProt O14965) | cell-free assay | 69%
GAK (Homo sapiens, UniProt O14976) | cell-free assay | 95%
NEK4 (Homo sapiens, UniProt P51957) | cell-free assay | 93%
WEE2 (Homo sapiens, UniProt P0C1S8) | cell-free assay | 100%
CAMK2D (Homo sapiens, UniProt Q13557) | cell-free assay | 100%
MAP2K6 (Homo sapiens, UniProt P52564) | cell-free assay | 100%
FLT3 (Homo sapiens, UniProt P36888, ITD) | cell-free assay | 97%

Some of these lines once more (block 2):
Compound | log2 fold change
CC(=O)Nc1ccc(CC(=O)O)cc1 | 0.29
CNS(=O)(=O)Cc1ccc2[nH]cc(CCN(C)C)c2c1 | 0.32
CCOC(=O)O[C@]1(C(=O)OCCl)CC[C@H]2[C@@H]3CCC4=CC(=O)C=C[C@]4(C)[C@H]3[C@@H](O)C[C@@]21C | 0.35
CCCc1nc(C(C)(C)O)c(C(=O)OCc2oc(=O)oc2C)n1Cc1ccc(-c2ccccc2-c2nnn[nH]2)cc1 | -0.0181
C[C@@H]1C[C@H]2[C@@H]3CCC4=CC(=O)C=C[C@]4(C)[C@@]3(F)[C@@H](O)C[C@]2(C)[C@@]1(O)C(=O)CO | 0.27
